Experimental data collected from several papers.
Numbers after ± are the reported error.
FGFR1: Fibroblast growth factor receptor 1 (FGFR1, Homo sapiens, UniProt P11362)
UniProt P11362, sequence (whole entry, unmodified, looked up): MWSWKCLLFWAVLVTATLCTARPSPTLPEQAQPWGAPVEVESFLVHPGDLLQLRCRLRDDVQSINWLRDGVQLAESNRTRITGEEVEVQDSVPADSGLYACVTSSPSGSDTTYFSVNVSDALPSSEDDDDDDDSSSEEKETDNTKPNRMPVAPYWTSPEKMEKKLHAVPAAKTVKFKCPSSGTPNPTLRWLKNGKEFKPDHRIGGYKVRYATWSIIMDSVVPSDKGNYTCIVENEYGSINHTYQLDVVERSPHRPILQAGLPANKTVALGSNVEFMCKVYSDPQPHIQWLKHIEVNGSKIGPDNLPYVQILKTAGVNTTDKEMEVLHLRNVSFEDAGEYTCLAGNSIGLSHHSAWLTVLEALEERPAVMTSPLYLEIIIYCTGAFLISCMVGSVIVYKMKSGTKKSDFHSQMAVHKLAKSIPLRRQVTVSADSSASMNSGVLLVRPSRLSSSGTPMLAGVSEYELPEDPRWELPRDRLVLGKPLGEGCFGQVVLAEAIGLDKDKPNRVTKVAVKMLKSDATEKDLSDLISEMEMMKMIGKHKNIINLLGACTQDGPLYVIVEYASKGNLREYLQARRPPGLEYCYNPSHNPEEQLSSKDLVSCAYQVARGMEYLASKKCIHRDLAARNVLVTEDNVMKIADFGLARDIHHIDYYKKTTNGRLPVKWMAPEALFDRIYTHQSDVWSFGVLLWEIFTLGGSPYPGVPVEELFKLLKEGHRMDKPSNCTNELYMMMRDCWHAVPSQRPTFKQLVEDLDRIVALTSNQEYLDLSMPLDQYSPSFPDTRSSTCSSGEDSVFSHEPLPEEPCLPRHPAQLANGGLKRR

SMILES	target	assay	conditions	scale	quantity	result
CN1CCN(c2ccc(/C=C3/C(=O)Nc4ccc(-c5ccc6cc(O)ccc6c5)cc43)cc2)CC1	FGFR1	enzyme activity, Z'-LYTE kinase			binding free energy	-11.1 kcal/mol
c1cnc2ccc(Nc3nc(NC4CC4)c4nc[nH]c4n3)cc2c1	FGFR1	kinase activity, inhibitor, SelectScreen kinase profiling	1 µM	reference: control	remaining activity	45%
[2H]c1cc(C)c(NC(=O)c2cnc(Nc3cc(N4CCCCC4)nc(C)n3)s2)c(Cl)c1	FGFR1		0.01 µM		inhibition	< 30%
C#Cc1cc(-c2cc(Nc3nc(N[C@@H](C)c4ccc(F)cn4)ncc3Cl)n[nH]2)ccc1C=O	FGFR1	enzyme activity, inhibitor	0.2 µM		inhibition	23.5%
C=CC(=O)N1CCC([C@@H]2CCNc3c(C(N)=O)c(-c4ccc(Oc5ccccc5)cc4)nn32)CC1	FGFR1	kinase activity, inhibitor, HotSpot radiometric	100 nM, together with: ATP 10 µM		remaining activity	102 ± 1.4%
C=CC(=O)N1CCC[C@@H](n2nc(-c3ccc(Oc4ccccc4)cc3)c3c(N)ncnc32)C1	FGFR1		1 µM		remaining activity	106%
COc1ccc(F)cc1C(=O)NCc1ccc(-c2nn([C@@H](C)C(F)(F)F)c(N)c2C(N)=O)cc1	FGFR1	kinase activity, inhibitor, HotSpot radiometric	100 nM, together with: ATP 10 µM		remaining activity	92.7 ± 1.2%
O=C1NC(=O)/C(=C/c2ccc(-c3ccc(F)cc3O)o2)S1	FGFR1	enzyme activity	10 µM		remaining activity	42%
COc1cc(F)ccc1-c1ncnc(Nc2cccc(C[S@](C)(=N)=O)c2)n1	FGFR1	kinase activity	10 µM, together with: 10 µM ATP		remaining activity	95%
CC#CC(=O)N1CCC[C@H]1c1nc(-c2ccc(C(=O)Nc3ccccn3)cc2)c2c(N)nccn12	FGFR1	kinase activity, inhibitor, HotSpot radiometric	100 nM, together with: ATP 10 µM		remaining activity	103 ± 1.5%
O=C(NC1CCC1)c1ccc2nc(-c3cccc(NS(=O)(=O)NCCN4CCCCC4)c3)cn2c1	FGFR1	enzyme activity	10 µM		remaining activity	100%
COc1cc(-c2cncc3c2CN(C)Cc2cc(N4CCNCC4)ccc2-3)cc(OC)c1OC	FGFR1 (Homo sapiens, UniProt P11362, V561M)	kinase activity	1 µM, together with: ATP 10 µM	reference: DMSO control	remaining activity	91%
C=CC(=O)N1CCC(COCC(=O)N2CCN(c3nc(-c4cnc(N)nc4C(F)F)nc(N4CCOC[C@@H]4C)n3)CC2)CC1	FGFR1	KINOMEscan	1 µM		remaining binding	100%

A few entries again:
SMILES	target	assay	conditions	scale	quantity	result
CN1CCN(c2ccc(/C=C3/C(=O)Nc4ccc(-c5ccc6cc(O)ccc6c5)cc43)cc2)CC1	FGFR1	enzyme activity, Z'-LYTE kinase			binding free energy	-11.1 kcal/mol
